Results from different studies.
Each line is one published result; not all experiments were run side by side. Numbers after ± are the reported error.
PSMB5: Proteasome Macropain subunit MB1 (PSMB5, Homo sapiens, UniProt P28074)
UniProt P28074, sequence (whole entry, looked up): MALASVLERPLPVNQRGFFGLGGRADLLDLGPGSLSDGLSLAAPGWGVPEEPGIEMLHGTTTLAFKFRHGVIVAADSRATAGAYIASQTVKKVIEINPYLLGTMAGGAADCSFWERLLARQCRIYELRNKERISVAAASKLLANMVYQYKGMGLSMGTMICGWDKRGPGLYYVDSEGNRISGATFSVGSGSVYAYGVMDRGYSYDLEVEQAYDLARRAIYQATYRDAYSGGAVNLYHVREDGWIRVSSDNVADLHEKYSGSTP
UniProt Q2M2I8, sequence (whole entry, looked up): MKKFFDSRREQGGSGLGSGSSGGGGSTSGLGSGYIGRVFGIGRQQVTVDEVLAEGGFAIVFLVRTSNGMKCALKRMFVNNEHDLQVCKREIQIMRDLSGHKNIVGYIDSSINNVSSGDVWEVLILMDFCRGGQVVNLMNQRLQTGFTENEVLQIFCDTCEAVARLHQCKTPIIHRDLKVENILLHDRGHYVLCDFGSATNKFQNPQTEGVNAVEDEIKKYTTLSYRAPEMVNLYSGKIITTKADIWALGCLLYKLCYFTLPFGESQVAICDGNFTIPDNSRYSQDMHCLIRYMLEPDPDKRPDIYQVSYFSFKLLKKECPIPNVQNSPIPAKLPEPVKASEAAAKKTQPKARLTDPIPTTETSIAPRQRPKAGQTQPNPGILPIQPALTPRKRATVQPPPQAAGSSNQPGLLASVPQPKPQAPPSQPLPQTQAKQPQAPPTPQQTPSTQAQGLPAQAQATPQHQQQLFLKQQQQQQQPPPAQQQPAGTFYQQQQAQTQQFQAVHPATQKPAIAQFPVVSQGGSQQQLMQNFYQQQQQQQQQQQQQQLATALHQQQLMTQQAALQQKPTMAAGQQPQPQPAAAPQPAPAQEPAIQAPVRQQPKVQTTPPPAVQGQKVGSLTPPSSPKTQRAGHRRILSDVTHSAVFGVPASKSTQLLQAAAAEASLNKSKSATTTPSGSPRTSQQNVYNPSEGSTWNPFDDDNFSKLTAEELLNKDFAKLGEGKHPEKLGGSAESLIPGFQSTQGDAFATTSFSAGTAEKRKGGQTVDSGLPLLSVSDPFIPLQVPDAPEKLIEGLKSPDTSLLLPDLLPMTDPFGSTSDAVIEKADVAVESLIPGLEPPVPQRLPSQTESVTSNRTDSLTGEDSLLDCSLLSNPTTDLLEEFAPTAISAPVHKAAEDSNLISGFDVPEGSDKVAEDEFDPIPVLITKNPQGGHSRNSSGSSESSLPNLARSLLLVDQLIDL
UniProt P0AGE0, sequence (whole entry, looked up): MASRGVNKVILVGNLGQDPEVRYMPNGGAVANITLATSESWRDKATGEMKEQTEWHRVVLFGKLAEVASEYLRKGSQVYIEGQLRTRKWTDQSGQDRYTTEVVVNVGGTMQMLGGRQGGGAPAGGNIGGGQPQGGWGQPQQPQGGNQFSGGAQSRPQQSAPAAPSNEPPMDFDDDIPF
UniProt P41595, sequence (whole entry, looked up): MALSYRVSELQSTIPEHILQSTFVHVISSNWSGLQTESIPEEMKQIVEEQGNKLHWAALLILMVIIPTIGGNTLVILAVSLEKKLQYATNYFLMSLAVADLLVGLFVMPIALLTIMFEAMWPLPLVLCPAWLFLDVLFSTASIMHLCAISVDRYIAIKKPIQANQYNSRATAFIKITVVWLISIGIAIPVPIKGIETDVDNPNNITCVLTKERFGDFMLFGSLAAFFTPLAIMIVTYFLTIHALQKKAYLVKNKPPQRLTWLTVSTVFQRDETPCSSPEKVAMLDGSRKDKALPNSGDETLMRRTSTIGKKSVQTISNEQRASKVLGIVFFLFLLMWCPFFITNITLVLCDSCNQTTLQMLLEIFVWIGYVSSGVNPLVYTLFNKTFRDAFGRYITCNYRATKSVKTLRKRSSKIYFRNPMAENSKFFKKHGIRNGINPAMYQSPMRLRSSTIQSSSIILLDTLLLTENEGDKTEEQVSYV
UniProt P14061, sequence (whole entry, looked up): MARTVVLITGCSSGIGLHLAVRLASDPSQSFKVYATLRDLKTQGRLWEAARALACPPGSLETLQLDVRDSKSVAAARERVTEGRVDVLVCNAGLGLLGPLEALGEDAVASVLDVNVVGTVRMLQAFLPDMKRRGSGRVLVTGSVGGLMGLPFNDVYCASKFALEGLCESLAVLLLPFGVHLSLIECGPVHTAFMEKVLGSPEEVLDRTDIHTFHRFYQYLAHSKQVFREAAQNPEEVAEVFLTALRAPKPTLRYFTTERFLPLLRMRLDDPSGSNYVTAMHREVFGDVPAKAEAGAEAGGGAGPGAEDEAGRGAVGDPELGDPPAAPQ
UniProt Q99436, sequence (whole entry, looked up): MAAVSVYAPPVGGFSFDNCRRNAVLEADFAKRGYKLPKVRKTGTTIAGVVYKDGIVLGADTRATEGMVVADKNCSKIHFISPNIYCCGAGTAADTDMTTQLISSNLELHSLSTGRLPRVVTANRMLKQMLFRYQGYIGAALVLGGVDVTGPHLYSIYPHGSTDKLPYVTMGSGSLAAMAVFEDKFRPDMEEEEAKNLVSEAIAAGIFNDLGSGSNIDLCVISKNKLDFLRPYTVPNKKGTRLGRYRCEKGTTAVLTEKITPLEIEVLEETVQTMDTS
UniProt P49720, sequence (whole entry, looked up): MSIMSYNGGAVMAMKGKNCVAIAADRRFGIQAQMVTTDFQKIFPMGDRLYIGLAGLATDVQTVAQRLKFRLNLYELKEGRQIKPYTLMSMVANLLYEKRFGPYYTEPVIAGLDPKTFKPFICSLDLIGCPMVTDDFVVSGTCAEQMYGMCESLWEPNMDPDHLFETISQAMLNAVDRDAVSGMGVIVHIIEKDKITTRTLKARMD
UniProt P37023, sequence (whole entry, looked up): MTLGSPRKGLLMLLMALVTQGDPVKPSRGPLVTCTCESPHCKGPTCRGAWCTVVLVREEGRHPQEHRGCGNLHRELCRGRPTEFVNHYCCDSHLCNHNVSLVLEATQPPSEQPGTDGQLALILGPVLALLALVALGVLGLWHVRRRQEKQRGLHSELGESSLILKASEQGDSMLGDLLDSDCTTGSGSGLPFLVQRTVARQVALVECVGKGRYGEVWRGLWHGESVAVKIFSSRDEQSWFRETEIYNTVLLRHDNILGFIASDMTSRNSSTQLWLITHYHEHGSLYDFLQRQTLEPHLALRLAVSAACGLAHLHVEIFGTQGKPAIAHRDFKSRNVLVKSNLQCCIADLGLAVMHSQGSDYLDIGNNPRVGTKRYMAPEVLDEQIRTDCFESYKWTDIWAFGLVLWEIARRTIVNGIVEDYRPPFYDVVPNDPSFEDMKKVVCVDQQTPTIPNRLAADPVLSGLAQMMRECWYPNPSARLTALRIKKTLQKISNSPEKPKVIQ
UniProt C7C422, sequence (whole entry, looked up): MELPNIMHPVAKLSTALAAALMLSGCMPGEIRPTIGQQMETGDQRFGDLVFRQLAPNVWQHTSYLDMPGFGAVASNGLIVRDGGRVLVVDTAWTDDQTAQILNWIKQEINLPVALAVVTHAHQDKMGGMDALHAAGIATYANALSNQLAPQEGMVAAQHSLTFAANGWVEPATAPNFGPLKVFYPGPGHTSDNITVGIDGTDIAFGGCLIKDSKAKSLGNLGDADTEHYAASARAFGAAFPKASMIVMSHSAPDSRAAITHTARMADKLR
UniProt Q05097, sequence (whole entry, looked up): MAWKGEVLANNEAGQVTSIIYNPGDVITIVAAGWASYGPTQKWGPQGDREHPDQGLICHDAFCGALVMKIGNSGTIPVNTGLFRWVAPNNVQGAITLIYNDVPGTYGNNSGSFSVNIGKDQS
UniProt P45984, sequence (whole entry, looked up): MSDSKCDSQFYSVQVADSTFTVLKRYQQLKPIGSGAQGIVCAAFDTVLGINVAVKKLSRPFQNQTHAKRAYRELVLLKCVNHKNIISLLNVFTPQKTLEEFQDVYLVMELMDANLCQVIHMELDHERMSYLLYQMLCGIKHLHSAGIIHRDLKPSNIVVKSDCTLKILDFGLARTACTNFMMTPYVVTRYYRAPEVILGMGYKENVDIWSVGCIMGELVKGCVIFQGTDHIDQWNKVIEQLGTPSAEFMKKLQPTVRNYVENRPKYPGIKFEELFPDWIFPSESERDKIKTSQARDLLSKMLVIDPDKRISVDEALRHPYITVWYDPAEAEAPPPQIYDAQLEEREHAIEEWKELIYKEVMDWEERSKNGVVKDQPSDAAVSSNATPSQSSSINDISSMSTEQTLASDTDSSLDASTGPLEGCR
UniProt O14786, sequence (whole entry, looked up): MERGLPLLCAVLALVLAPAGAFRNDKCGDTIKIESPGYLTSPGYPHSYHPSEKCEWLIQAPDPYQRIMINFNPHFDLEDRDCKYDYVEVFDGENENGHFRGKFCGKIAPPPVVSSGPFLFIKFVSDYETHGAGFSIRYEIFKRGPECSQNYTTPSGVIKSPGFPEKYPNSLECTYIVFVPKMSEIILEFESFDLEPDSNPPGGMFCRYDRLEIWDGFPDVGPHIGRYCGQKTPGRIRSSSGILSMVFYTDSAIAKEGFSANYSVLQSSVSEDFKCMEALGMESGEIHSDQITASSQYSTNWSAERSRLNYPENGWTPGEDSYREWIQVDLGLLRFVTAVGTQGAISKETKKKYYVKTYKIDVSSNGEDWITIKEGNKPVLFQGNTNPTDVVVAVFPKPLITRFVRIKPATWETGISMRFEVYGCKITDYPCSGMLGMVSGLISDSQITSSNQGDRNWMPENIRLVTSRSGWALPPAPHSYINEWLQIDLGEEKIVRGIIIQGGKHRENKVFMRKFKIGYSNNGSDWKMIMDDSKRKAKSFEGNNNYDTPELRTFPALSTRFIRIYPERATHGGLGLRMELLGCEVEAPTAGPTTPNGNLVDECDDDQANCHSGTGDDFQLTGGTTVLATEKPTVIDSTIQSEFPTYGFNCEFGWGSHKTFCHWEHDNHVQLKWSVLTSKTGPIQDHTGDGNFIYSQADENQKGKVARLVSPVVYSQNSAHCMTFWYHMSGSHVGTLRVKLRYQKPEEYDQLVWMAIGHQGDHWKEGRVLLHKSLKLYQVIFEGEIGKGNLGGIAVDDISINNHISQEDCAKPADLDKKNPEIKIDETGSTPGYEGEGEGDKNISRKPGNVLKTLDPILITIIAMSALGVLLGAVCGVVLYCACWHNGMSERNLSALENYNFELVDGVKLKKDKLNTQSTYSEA

SMILES | target | test | test system | conditions | IC50 [µM]
C=C(NC(=O)C(=C)NC(=O)c1csc(C2=NC3c4csc(n4)C4NC(=O)c5csc(n5)C(C(C)(O)C(C)O)NC(=O)C5CSC(=N5)C(=CC)NC(=O)C(C(C)O)NC(=O)c5csc(n5)C3(CC2)NC(=O)C(CCC(N)=O)NC(=O)C(=C)NC(=O)C(C)NC(=O)C(C(C)CC)NC2C=Cc3c(C(C)O)cc(nc3C2O)C(=O)OC4C)n1)C(N)=O (centres unmarked) | PSMB5 | chymotrypsin-like activity, inhibitor | purified 20S proteasome | 15 min preincubation, 37 °C, with: Suc-Leu-Leu-Val-Tyr-AMC substrate | 4.19 ± 0.48
COc1ccc2c(c1)CC[C@H]1[C@@H]3[C@H](OCCC#N)CC(=O)[C@@]3(C)CC[C@H]21 | HSD17B1 (Homo sapiens, UniProt P14061) | enzyme activity, inhibitor, radiometric | – | – | 0.42 to 0.64
Cc1cc(N2CC[C@@](C#N)(C3(C)CC3)C2=O)cc(C(=O)NCc2cc(F)cc(-c3cnn(C)c3)c2)n1 | HTR2B (Homo sapiens, UniProt P41595) | cell-free assay | – | – | > 10
Cc1[nH]c2ccccc2c1CCNC(=O)c1cccs1 | ACTR2/ACTR3 (Bos taurus, UniProt A7MB62+P61157) | actin polymerization, inhibitor, pyrenyl-actin | – | 3 µM actin, 30% pyrenyl, with: 5 nM Arp2/3 complex, 1 µM N-WASp-VCA | 32
CC[C@H](C)[C@H](NC(=O)[C@H](CCCNC(=N)N)NC(=O)[C@H](CC(N)=O)NC(=O)[C@H](C)NC(=O)[C@H](Cc1c[nH]cn1)NC(=O)[C@@H](NC(=O)[C@H](CCC(N)=O)NC(=O)[C@@H]1CCCN1C(=O)[C@@H](N)CC(=O)O)[C@@H](C)O)C(=O)N[C@@H](Cc1ccc(O)cc1)C(=O)N[C@@H](CCCNC(=N)N)C(=O)N[C@@]1(C)CCCC=CCCC[C@@](C)(C(=O)N[C@@H](CC(C)C)C(=O)NCC(=O)O)NC(=O)[C@H](CC(C)C)NC(=O)[C@H](CCCCN)NC(=O)[C@H]([C@@H](C)CC)NC1=O | Hsp90 | luciferase refolding, inhibitor | rabbit reticulocyte lysate | with: heat-denatured luciferase | 37.9 ± 4
N=C(N)NCCC[C@H](NC(=O)[C@@H]1CCCN1C(=O)[C@H](CC(N)=O)NC(=O)[C@H](CCCNC(=N)N)NC(=O)[C@@H]1CCCN1C(=O)[C@H](CCCCN)NC(=O)[C@H](CCCCN)NC(=O)[C@H](CCC(N)=O)NC(=O)[C@H](CC(=O)O)NC(=O)[C@@H](N)Cc1c[nH]c2ccccc12)C(=O)O | Neuropilin-1 (NRP1, Homo sapiens, UniProt O14786) | inhibitor, plate binding | – | 1 h, 25 °C | 4.7
C=CCNC(=O)[C@H](CCc1ccccc1)NC(=O)[C@H](CC(=O)NCC(C)(C)C)NC(=O)CCc1ccccc1 | Proteasome subunit beta type-3/PSMB7 (Homo sapiens, UniProt P49720+Q99436) | inhibitor | – | – | > 100
Cc1cc(NC(=O)c2cccc(-n3cc(NC(=O)Nc4ccc(Cl)cc4)cn3)c2)ccn1 | MAPK9 (Homo sapiens, UniProt P45984) | enzyme activity, inhibitor | – | – | 0.65
CCOC(=O)C(CS)N1C(=O)c2ccc(N(C)C)cc2C1=O (centres unmarked) | blaNDM-1 (Klebsiella pneumoniae, UniProt C7C422) | enzyme activity, inhibitor | – | pH 7 | 7.9
O=C(Nc1cccc(C(=O)Nc2ccc(S(=O)(=O)O)c3cc(S(=O)(=O)O)cc(S(=O)(=O)O)c23)c1)Nc1cccc(C(=O)Nc2ccc(S(=O)(=O)O)c3cc(S(=O)(=O)O)cc(S(=O)(=O)O)c23)c1 | Single-stranded DNA-binding protein (ssb, Escherichia coli, UniProt P0AGE0) | DNA binding, fluorescence polarization | – | with: Cy5-dT15 DNA 5 nM | 1.7 ± 0.2
CC(C)c1nnc(-c2cccc(Nc3ncnn4ccc(CN5CCC(N)CC5)c34)c2)s1 | AAK1 (Homo sapiens, UniProt Q2M2I8) | enzyme activity, inhibitor | – | – | 0.057
[N-]=[N+]=NCCNC(=O)c1ccc(S[C@@H]2O[C@H](CO)[C@H](O)[C@H](O)[C@H]2O)cc1 | lecA (Pseudomonas aeruginosa, UniProt Q05097) | ligand displacement, FP | – | – | 50.3
COc1cc(-c2nc3ccc(C(=O)NCCCN4CCN(c5ccccc5)C(=O)C4)cc3n2C2CCC2)cc(OC)c1OC | ACVRL1 (Homo sapiens, UniProt P37023) | target engagement in cells, BRET | – | – | > 30
CC(C)C[C@@H](/C=C/S(C)(=O)=O)NC(=O)[C@H](CC(C)C)NC(=O)[C@@H](NC(=O)N[C@H](C(=O)O)C(C)C)C(C)C | PSMB5 | active site labelling, inhibitor, probe competition gel | HEK-293T cell lysate | 1 h, 37 °C, with: activity-based probe 0.5 µM | 4.2

A few entries again:
SMILES | target | test | test system | conditions | IC50 [µM]
Cc1[nH]c2ccccc2c1CCNC(=O)c1cccs1 | ACTR2/ACTR3 (Bos taurus, UniProt A7MB62+P61157) | actin polymerization, inhibitor, pyrenyl-actin | – | 3 µM actin, 30% pyrenyl, with: 5 nM Arp2/3 complex, 1 µM N-WASp-VCA | 32
CC[C@H](C)[C@H](NC(=O)[C@H](CCCNC(=N)N)NC(=O)[C@H](CC(N)=O)NC(=O)[C@H](C)NC(=O)[C@H](Cc1c[nH]cn1)NC(=O)[C@@H](NC(=O)[C@H](CCC(N)=O)NC(=O)[C@@H]1CCCN1C(=O)[C@@H](N)CC(=O)O)[C@@H](C)O)C(=O)N[C@@H](Cc1ccc(O)cc1)C(=O)N[C@@H](CCCNC(=N)N)C(=O)N[C@@]1(C)CCCC=CCCC[C@@](C)(C(=O)N[C@@H](CC(C)C)C(=O)NCC(=O)O)NC(=O)[C@H](CC(C)C)NC(=O)[C@H](CCCCN)NC(=O)[C@H]([C@@H](C)CC)NC1=O | Hsp90 | luciferase refolding, inhibitor | rabbit reticulocyte lysate | with: heat-denatured luciferase | 37.9 ± 4
